{"data": "Measurements collected from several papers", "note": "Each numbered part is a random draw from the data of one study; scales do not carry over between parts.", "UniProt Q92772, sequence (whole entry, looked up)": "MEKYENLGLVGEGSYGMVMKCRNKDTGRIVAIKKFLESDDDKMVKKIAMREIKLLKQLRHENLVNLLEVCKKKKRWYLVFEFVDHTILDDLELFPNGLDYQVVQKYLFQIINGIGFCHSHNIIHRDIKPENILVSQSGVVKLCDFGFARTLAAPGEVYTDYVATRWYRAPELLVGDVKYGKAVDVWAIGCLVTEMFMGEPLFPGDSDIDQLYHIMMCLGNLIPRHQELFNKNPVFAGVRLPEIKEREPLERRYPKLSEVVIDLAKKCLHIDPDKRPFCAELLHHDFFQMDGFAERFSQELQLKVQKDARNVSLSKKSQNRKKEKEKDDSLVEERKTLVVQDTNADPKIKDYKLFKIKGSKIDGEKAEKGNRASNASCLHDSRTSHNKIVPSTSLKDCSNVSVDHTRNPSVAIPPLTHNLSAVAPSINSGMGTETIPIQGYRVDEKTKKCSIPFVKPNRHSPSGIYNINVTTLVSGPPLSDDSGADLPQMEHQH", "UniProt O96017, sequence (whole entry, looked up)": "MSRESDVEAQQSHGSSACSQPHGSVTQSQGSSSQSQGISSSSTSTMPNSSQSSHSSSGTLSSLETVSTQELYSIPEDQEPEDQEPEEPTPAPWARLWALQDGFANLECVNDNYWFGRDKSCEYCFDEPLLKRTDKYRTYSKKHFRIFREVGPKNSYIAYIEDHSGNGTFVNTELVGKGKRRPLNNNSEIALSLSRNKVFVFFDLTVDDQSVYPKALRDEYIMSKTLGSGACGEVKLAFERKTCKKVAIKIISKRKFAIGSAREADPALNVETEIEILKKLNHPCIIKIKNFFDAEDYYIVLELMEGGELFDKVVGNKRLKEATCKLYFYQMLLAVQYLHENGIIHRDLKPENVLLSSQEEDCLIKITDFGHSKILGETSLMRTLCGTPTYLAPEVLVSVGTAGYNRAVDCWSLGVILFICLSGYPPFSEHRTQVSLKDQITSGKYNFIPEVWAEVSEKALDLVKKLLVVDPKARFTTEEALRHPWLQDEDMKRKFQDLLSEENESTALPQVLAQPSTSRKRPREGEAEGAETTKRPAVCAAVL", "UniProt P11362, sequence (whole entry, looked up)": "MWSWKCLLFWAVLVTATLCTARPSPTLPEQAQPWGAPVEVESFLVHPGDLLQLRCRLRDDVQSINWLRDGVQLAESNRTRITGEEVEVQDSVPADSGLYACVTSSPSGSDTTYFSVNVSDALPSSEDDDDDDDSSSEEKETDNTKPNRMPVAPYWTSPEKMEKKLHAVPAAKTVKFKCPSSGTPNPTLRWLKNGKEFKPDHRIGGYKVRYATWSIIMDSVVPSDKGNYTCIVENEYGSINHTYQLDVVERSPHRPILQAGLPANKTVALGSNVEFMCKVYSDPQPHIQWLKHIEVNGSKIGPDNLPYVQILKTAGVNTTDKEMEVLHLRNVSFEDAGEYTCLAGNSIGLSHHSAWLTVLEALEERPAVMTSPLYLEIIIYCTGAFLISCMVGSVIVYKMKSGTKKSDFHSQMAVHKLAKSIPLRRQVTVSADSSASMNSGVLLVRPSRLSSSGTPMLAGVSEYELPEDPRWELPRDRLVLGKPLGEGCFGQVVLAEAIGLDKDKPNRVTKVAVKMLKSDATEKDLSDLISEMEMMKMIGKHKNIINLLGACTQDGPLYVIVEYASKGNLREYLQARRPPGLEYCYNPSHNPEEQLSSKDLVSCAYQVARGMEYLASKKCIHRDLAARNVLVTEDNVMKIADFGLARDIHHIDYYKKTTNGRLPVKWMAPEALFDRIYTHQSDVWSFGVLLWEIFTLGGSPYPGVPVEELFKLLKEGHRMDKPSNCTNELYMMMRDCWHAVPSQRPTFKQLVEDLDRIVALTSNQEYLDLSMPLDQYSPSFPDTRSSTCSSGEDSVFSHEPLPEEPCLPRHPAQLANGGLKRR", "UniProt Q96RR4, sequence (whole entry, looked up)": "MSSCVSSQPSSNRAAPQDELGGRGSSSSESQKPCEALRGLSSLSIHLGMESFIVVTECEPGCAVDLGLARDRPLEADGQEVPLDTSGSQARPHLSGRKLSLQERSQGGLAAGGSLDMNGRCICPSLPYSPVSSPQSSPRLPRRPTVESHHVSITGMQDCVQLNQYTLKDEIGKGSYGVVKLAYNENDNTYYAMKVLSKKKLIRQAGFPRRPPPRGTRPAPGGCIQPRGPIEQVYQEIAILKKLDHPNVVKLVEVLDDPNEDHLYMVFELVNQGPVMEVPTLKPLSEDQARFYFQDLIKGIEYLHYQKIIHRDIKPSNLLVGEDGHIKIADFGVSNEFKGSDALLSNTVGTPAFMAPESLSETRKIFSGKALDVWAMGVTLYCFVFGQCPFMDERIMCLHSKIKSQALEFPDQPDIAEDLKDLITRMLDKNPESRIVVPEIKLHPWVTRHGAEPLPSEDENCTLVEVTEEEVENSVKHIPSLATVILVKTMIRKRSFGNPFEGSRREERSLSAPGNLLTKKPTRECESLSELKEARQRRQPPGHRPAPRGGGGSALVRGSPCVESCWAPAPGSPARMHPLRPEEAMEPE", "UniProt Q13163, sequence (whole entry, looked up)": "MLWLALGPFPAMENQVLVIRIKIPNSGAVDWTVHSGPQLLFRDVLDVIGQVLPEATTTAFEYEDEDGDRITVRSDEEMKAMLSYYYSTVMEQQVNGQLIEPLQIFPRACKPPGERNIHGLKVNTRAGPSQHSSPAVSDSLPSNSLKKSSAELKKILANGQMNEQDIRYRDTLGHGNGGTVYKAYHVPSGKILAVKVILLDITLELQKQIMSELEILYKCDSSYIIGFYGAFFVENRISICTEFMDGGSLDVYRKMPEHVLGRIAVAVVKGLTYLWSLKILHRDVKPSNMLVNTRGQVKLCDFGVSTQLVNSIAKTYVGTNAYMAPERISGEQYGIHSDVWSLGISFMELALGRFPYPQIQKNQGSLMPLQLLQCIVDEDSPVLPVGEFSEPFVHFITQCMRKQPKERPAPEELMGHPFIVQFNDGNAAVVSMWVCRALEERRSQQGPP", "UniProt O75582, sequence (whole entry, looked up)": "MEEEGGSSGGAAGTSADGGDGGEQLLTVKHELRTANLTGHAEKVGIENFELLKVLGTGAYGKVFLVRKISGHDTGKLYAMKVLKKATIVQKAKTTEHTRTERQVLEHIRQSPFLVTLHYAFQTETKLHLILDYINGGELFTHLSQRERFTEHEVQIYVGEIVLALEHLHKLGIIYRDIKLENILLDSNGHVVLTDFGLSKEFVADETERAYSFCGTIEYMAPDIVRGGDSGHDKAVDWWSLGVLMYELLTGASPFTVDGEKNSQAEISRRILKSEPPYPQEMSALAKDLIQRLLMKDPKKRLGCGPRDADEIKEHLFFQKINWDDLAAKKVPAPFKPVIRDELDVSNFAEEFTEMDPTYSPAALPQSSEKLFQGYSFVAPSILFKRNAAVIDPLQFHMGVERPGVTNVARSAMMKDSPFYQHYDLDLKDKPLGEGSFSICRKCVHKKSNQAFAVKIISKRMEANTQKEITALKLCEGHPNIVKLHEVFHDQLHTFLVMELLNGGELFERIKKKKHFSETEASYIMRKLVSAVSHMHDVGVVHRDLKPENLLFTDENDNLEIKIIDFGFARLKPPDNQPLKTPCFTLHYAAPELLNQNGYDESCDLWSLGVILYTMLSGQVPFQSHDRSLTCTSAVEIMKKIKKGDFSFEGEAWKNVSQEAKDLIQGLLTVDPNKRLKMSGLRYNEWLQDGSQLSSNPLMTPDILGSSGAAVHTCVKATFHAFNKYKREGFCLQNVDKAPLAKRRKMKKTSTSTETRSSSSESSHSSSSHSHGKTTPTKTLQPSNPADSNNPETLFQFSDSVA", "UniProt P11802, sequence (whole entry, looked up)": "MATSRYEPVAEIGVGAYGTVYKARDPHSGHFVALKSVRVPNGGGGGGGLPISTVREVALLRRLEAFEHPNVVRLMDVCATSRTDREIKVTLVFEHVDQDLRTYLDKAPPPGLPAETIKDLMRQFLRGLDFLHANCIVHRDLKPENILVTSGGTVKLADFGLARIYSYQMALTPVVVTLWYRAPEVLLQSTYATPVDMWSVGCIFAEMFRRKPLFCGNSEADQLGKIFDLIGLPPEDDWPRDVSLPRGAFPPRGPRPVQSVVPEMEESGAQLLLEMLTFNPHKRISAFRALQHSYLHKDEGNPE"}
{"data": "Sample 1", "target": "TAR DNA-binding protein 43, full length, His tag (TARDBP, Homo sapiens, UniProt Q13148, residues 1-414)", "method": "RNA Bind-n-Seq", "molecule type": "RNA", "matrix": "in vitro", "tested at": "20 nM", "notes": "6-mer, flanks averaged, single round", "added": "150 mM KCl", "relative to": "input library", "direction": "higher = stronger binding"}
{"Oligonucleotide": "ACUGAU", "6-mer enrichment (R)": 0.613}
{"Oligonucleotide": "UGCACC", "6-mer enrichment (R)": 0.723}
{"Oligonucleotide": "UACGCC", "6-mer enrichment (R)": 0.643}
{"Oligonucleotide": "AUUAGU", "6-mer enrichment (R)": 0.628}
{"Oligonucleotide": "ACUGCA", "6-mer enrichment (R)": 0.674}
{"Oligonucleotide": "CCAUGC", "6-mer enrichment (R)": 0.675}
{"Oligonucleotide": "AGUUCC", "6-mer enrichment (R)": 0.588}
{"Oligonucleotide": "UGGGCG", "6-mer enrichment (R)": 4.23}
{"data": "Sample 2", "SMILES": "O=C1NC(=O)C(c2cn(CCCO)c3ncccc23)=C1c1cnccn1", "observed": "enzyme activity", "action": "inhibitor", "tested at": "0.5 µM", "relative to": "control"}
{"target": "Protein kinase C alpha type (PRKCA, Homo sapiens, UniProt P17252)", "remaining activity [%]": 91.1}
{"target": "Death-associated protein kinase 1 (DAPK1, Homo sapiens, UniProt P53355)", "remaining activity [%]": 74.4}
{"target": "Inhibitor of nuclear factor kappa-B kinase subunit epsilon (IKBKE, Homo sapiens, UniProt Q14164)", "remaining activity [%]": 90}
{"target": "cAMP-dependent protein kinase catalytic subunit alpha (PRKACA, Homo sapiens, UniProt P17612)", "remaining activity [%]": 87.7}
{"target": "Serine/threonine-protein kinase 10 (STK10, Homo sapiens, UniProt O94804)", "remaining activity [%]": 104}
{"target": "Calcium/calmodulin-dependent protein kinase kinase 2 (CAMKK2, Homo sapiens, UniProt Q96RR4)", "remaining activity [%]": 115}
{"target": "Cyclin-dependent kinase 4, with cyclin D1 (CDK4, Homo sapiens, UniProt P11802)", "remaining activity [%]": 89.5}
{"data": "Sample 3", "Structure (SMILES)": "O=C(NCc1ncc(C(F)(F)F)cc1Cl)c1ccc2c(c1)C1(CCS(=O)(=O)CC1)[C@@H](C1CC1)N2S(=O)(=O)c1ccc(F)cc1", "observed": "cell-free assay", "method": "competition with immobilised ligand", "tested at": "1 µM"}
{"target": "Cyclin-dependent kinase-like 2 (CDKL2, Homo sapiens, UniProt Q92772)", "remaining binding": "100%"}
{"target": "Ribosomal protein S6 kinase beta-1 (RPS6KB1, Homo sapiens, UniProt P23443)", "remaining binding": "72%"}
{"target": "Serine/threonine-protein kinase PLK4 (PLK4, Homo sapiens, UniProt O00444)", "remaining binding": "92%"}
{"target": "Epidermal growth factor receptor (EGFR, Homo sapiens, UniProt P00533, del746-750)", "remaining binding": "69%"}
{"target": "Fibroblast growth factor receptor 1 (FGFR1, Homo sapiens, UniProt P11362)", "remaining binding": "100%"}
{"target": "Protein-tyrosine kinase 6 (PTK6, Homo sapiens, UniProt Q13882)", "remaining binding": "94%"}
{"target": "Dual specificity mitogen-activated protein kinase kinase 5 (MAP2K5, Homo sapiens, UniProt Q13163)", "remaining binding": "90%"}
{"target": "Serine/threonine-protein kinase Chk2 (CHEK2, Homo sapiens, UniProt O96017)", "remaining binding": "97%"}
{"target": "Ribosomal protein S6 kinase alpha-3, N-terminal kinase domain (RPS6KA3, Homo sapiens, UniProt P51812)", "remaining binding": "57%"}
{"target": "Epidermal growth factor receptor (EGFR, Homo sapiens, UniProt P00533, T790M)", "remaining binding": "100%"}
{"target": "Receptor-type tyrosine-protein kinase FLT3 (FLT3, Homo sapiens, UniProt P36888, D835V)", "remaining binding": "76%"}
{"target": "Tyrosine-protein kinase ABL1, non-phosphorylated (ABL1, Homo sapiens, UniProt P00519, T315I)", "remaining binding": "72%"}
{"target": "Ribosomal protein S6 kinase alpha-5, N-terminal kinase domain (RPS6KA5, Homo sapiens, UniProt O75582)", "remaining binding": "100%"}
{"data": "Other studies, line by line"}
{"Substance": "PhoQ, residues 284 288 289 292 302 303 SLANIV", "target": "PhoP, residues 12 14 15 18 19 IFFTR (Escherichia coli, UniProt P23836)", "assay": "Sort-seq, item: YFP reporter", "system": "E. coli", "setting": "PhoQ-PhoP variant library, added: 10 µM Mg2+", "scale": "relative to: high Mg2+ state, higher = stronger signaling", "measurement": "fold induction", "value": 8.66}
{"note": "A few entries again (sample 3):"}
{"target": "Fibroblast growth factor receptor 1 (FGFR1, Homo sapiens, UniProt P11362)", "remaining binding": "100%"}
{"target": "Ribosomal protein S6 kinase alpha-5, N-terminal kinase domain (RPS6KA5, Homo sapiens, UniProt O75582)", "remaining binding": "100%"}
{"target": "Protein-tyrosine kinase 6 (PTK6, Homo sapiens, UniProt Q13882)", "remaining binding": "94%"}
{"target": "Ribosomal protein S6 kinase alpha-3, N-terminal kinase domain (RPS6KA3, Homo sapiens, UniProt P51812)", "remaining binding": "57%"}
